Measured values pooled from the literature.
Numbered parts are unrelated; each lists some results of a single study. Positions count from the first letter of the parent shown.

Series 1 — technique: universal PBM; molecule type: double-stranded DNA, one strand shown; matrix: in vitro; tested at: not given; direction: higher = stronger binding; endpoint: E-score
Target: Sal-like protein 4, full length isoform B (SALL4, Homo sapiens, UniProt Q9UJQ4-2, residues 1-616)
Setting: 8-mer, flanks averaged, mean of replicates
CCCAACAC: -0.109
TACCGGGA: -0.0761
AGGGCACT: -0.274
CGTCAAAA: 0.0993
ACTAGCTG: -0.0369
ATAAGCCA: 0.178
GCATCACA: -0.0238
GGGCGTAA: -0.115
ACACGTGC: -0.163
AACCGATG: -0.181
CGAGTTCC: -0.139
CGCGCGGC: -0.323
TCCCCTCA: -0.0778
GATCAGAC: -0.0478
AAGGTGCC: -0.103
ACTGATGA: 0.15
AGATTTTA: 0.272
AGATACGC: -0.0547

Series 2 — technique: RNA Bind-n-Seq; molecule type: RNA; matrix: in vitro; tested at: 200 nM; setting: whole 134-nt RNA, ends assumed; with: 150 mM LiCl; reference: input library; direction: higher = stronger binding; endpoint: log2 enrichment; each molecule: 7-deaza-guanosine replaces G
Target: Ras GTPase-activating protein-binding protein 1, full length (G3BP1, Homo sapiens, UniProt Q13283)
Sequence of UniProt Q13283 (whole entry, looked up): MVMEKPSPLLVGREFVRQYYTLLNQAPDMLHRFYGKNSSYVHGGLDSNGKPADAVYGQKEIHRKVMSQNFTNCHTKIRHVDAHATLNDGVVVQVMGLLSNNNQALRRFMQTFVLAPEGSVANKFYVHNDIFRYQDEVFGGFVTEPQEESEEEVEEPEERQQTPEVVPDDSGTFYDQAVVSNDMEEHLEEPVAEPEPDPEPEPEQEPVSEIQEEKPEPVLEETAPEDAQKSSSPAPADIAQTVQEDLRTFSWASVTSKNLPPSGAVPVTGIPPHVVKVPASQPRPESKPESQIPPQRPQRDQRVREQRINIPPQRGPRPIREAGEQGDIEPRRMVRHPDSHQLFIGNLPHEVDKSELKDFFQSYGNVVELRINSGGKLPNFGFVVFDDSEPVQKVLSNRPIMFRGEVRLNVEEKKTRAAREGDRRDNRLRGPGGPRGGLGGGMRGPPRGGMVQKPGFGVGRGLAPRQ
Constant ends, left off below: GGGAGUUCUACAGUCCGACGAUC … UGGAAUUCUCGGGUGUCAAGG
UCCUGUGCUACACAUCGUAUGUACCGAAUCGGAAAAAAGGGAAAAAAGGGGAAAAAAGGAAAGUAUUAUGUUACGCCGUUCGGAUCUGCA: -0.532
CUCAAGUCCUGUGCUACACAUCGUAUGUACCGAAUCGGGUUUGGGUGGGAGGGAAAGUAUUAUGUUACGCCGUUCGGAUCUGCACUUCCA: -0.137
CAAGUCCUGUGCUACACAUCGUAUGUACCGAAUCGGGGUGGGGUGGGGAAAGGGGAAAGUAUUAUGUUACGCCGUUCGGAUCUGCACUUC: -0.977
CUGUGCUACACAUCGUAUGUACCGAAUCGGGGUUUUUUUGGUUUUUUUGGGGUUUUUUUGGAAAGUAUUAUGUUACGCCGUUCGGAUCUG: 1.13
UGUGCUACACAUCGUAUGUACCGAAUCGGGUUUUUUUGGGGUUUUUUUGGGGUUUUUUUGGGAAAGUAUUAUGUUACGCCGUUCGGAUCU: 1.73
AGUCCUGUGCUACACAUCGUAUGUACCGAAUCGGGGCCCCGGCCCCGGGCCCCGGGGAAAGUAUUAUGUUACGCCGUUCGGAUCUGCACU: -2.15
CACAGACAACACGCACCCACACAGACACAGAGGGAAGGGGUUGGGAUGGAAACAGGGUGCACAGCAGGGCGGGGUAGGACCCCAGCCCCU: 0.48
UGGCCCUGGUGGCAUGCGGGGAGGAAGAGGUGGCUUCAUGGAUCGUGGUGGUCCCGGUGGAAUGUUCAGAGGUGGCCGUGGUGGAGACAG: 0.28
UAACUUUAGAGGAGGAUCUGAUGGAUAUGGCAGUGGACGUGGAUUUGGGGAUGGCUAUAAUGGGUAUGGAGGAGGACCUGGCGGUGGCAA: -0.0676
UCCUGUGCUACACAUCGUAUGUACCGAAUCAAAUUUUUAAACCCCCCCAAAUUUUUAAAAAAGUAUUAUGUUACGCCGUUCGGAUCUGCA: 1.35
UCUAUGUAGCAUCCAGGUACUACUUCCUUUGGAAUGUCAGUAUUUAAUCUGAGCAAUGCGAUUGUGGGCAGUGGAAUCCUUGGGCUUUCU: -1.83

Series 3 — technique: protein binding microarray; molecule type: double-stranded DNA, one strand shown; matrix: in vitro; tested at: not given; reference: not given; direction: higher = stronger binding; endpoint: E-score
Target: Histone acetyltransferase KAT6A, winged helix 1, GST fusion (KAT6A, Homo sapiens, UniProt Q92794, residues 1-85)
Setting: 8-mer, flanks averaged, mean of 2 arrays, mostly near background
Construct (chain): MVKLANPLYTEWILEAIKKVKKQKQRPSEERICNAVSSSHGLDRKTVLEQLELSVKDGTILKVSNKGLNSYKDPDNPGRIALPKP
CTGAACCA: -0.292
CTGGCATC: -0.196
AGAGATCC: -0.193
GTATGGCA: 0.0213
ATCGAAAT: -0.0319
GAGAATTA: -0.177
CAATTGCG: 0.21
CGGTCAAC: 0.201
GAACTGGC: 0.00368
GACCAGGA: -0.28
AAGCGTGC: 0.213
ACGCGCGG: 0.47
GATGAGAA: -0.196
AGCACGAC: -0.041
AGGCGGTC: 0.166
ATTATTTA: -0.0341
AGGGTGCG: 0.209
GAACAGGA: -0.153
ATAAAAGG: -0.266
AGCAACAC: -0.191
TAAGTCGA: -0.26
ATATCCAG: -0.176
GTTAAAAA: -0.128
CGAGGGAC: 0.0477
TCGGTACA: 0.0967

Series 4 — technique: RNA Bind-n-Seq; molecule type: RNA; matrix: in vitro; tested at: not given; setting: RNA with constant flanks, ends assumed; reference: input RNA pool; direction: higher = stronger binding; endpoint: bound/input enrichment
Target: RING finger protein unkempt homolog, zinc fingers 1-6, GST-SBP tag (UNK, Homo sapiens, UniProt Q9C0B0, residues 30-357)
Sequence of UniProt Q9C0B0 (30-357, looked up): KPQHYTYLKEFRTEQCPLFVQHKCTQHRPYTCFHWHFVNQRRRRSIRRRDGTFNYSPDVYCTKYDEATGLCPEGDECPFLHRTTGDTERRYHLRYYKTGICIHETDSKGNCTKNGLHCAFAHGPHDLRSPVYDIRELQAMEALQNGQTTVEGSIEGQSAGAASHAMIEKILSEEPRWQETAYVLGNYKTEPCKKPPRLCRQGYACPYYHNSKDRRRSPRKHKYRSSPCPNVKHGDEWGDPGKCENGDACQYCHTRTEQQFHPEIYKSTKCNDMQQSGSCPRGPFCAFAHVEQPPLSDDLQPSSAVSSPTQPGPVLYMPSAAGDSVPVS
Constant ends, left off below: GGGAGUUCUACAGUCCGACGAUC … CAACAGAGGAUUGAGCAUCA
GUGUUCGAGGAGAUGAACGUGGAUCUGCAGGAGGAGCUGCCAUCCCUGUGGAACAGCCGUGCCGGUUUCUAUGUCAACACGUUCCAGAGCAUCGCGGGUCUGGAGGAAAACUUCCAUAAA: 0.156 ratio
UCUACAUAUUUUGCCUGGUGCCCAGAUGGUGAGCAUAUCUUAACAGCCACAUGUGCUCCCCGGUUACGUGUUAAUAAUGGGUAUAAGAUCUGGCAUUAUACUGGCUCUCUUUUGCAUAAG: 0.185 ratio
GGCUUUGCGCUACUCUUCUACCUUGAACAGCUUCUUGGGGGACCAGAGGUGUUUCCCGGAUUCUUAAAGGCUUAUGUUAAGAAGUUUUCCUACCAAAGUGUAACGACUGAUGACUGGAAG: 0.181 ratio
UGUGUCUUACGUGCCACCACGGCGUUGUACCUGUAGGACUCUCAUUCGGGAUGAUUGGAACCGCUUCUGGAAUUUGUUCAAGUUUUGGGUAUGUUUAAUCUGUUAUGUACUAGUGUUCUG: 0.407 ratio
CAAAGCAACCUUUCCCUUCCCCCGAGUGAUUUUGCGAAACCCCCUUUUCCCUUCAGCUUGCUCCGAUGUUCCAAAUUUAGAAAGCUUAAGGCGGCCUACAGAAAAAGGAAAAAAGGCCAC: 1.57 ratio
ACUUUUCCAGUAUUUUAGUGGACCCUGAAAUGUGUGUGAUGUGACAUUUGUUAUUUUCAUCCGCAAAAAAAAGAGUUGUAUGAUCUGUGCCUUUUUUAUAUCUUGGCAGGUAGGAAUAUU: 0.324 ratio
UCUUCCUUUCCUUCUGUCUGUCUGACUCCUGGGUCUGUGCGCCAUGGCAUGAGUGUUUUCCCGCCGCCGACUGGAGUAGUAGACUGUUUCUAAGAACAGAUGAUCUGGUUCCUGAUGUGU: 0.165 ratio
CUGUGAAAGUAUGGGAAGGUUCCCAUCCCCAUCCUUUAAGGUUCCCAAACCUGGAGUGCACCGGUACUAAACCAAGCAGUGCAACUUGUAAUUAAGAAGCUGCAGUGUUUACAUGUUUCU: 0.157 ratio
CCAGGAGUGUAACUCUCUGAGUGAUGUGCUGGACACAUUUUCAAAAGCACCUACAUUUCCUGGCCGUAACUAUUUCUUAGCAAUGUGGAUAAUUGCCAAAAGGAUAUCUGAAGACAAGAG: 0.255 ratio
GCAUAUGGUUAUCGAGGAAAGGACUGUAGAGCUAAUGUUUACCUUCUUCCGACCGGGAAAACCGUUUAUUUCAUUGCAUCAGUAGUAGUACUAUUUAAUUAUGAGGAGAGAACUCAGCGA: 3.09 ratio
GCAGGGCAAGAGGAUUAUGACAGACUACGACCGCUAAGUUAUCCACAGACAGAUGUUUUUCCCGUAUGUUUCUCAGUGGUCUCUCCAUCCUCAUUUGAAAAUGUGAAAGAAAAGUGGGUG: 0.27 ratio

Series 5 — technique: protein-binding microarray; molecule type: double-stranded DNA, one strand shown; matrix: in vitro; tested at: 250 nM; setting: 60-bp whole probe; with: salmon DNA 0.4 mg/ml; reference: random background probes; direction: higher = stronger binding; endpoint: log fluorescence; constant ends, left off below: GCCTAGCAC … GTCTTGATTCGCTTGACGCTGCTG
Target: Interferon regulatory factor 7, full length, phosphomimetic (IRF7, Homo sapiens, UniProt Q92985, residues 1-503, S101K/S471D/S472D/S475D/S476D/S477D/S483D/S484D/S487D)
Sequence of UniProt Q92985 (whole entry, unmodified, looked up): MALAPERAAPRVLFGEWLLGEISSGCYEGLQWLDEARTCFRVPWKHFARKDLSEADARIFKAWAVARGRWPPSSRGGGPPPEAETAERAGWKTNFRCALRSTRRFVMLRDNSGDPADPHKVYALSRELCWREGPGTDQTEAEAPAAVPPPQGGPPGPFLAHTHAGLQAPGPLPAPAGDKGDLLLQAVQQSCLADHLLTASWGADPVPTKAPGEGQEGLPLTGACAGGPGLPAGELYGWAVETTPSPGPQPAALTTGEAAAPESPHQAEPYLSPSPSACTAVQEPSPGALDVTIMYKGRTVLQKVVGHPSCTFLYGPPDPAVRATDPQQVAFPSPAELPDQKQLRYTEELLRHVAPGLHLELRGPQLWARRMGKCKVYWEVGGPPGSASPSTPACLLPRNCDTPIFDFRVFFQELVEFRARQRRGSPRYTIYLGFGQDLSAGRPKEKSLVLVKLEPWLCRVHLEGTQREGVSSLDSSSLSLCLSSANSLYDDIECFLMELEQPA
GACGAACTGGGGTATCAAGACGTGCTA: -0.735 z-score
GATGGACTGGACTATCGGGACGTGCTA: -0.749 z-score
GACGGTTTCGGACTGGGGCCGTGCTAG: 3.32 z-score
GACGATTTCAGTTCCGAGGCGTGCTAG: 0.636 z-score
GACAGTCTCCTTATCCTGACGTGCTAG: 0.398 z-score
TTAGATTTCAGTCTCGTTTAGTGCTAG: 3 z-score
GACGGTGTCGACTTTCGGGACGTGCTA: -0.336 z-score
TTAGAACTGGGACTGGATTAGTGCTAG: -0.157 z-score
GACGACCTCAGTTTCGAGACGTGCTAG: 3.98 z-score
TTAGGCATCGACACTGGGTTAGTGCTA: -0.88 z-score
TTAGGACTGCTTTGCCTTTAGTGCTAG: 1.25 z-score
TTAGATCTCTGACTGGATTAGTGCTAG: -0.0642 z-score
GACGGTAGCGGGTATCGGGACGTGCTA: -0.748 z-score
CTCTAACTCAAGATTCCTCTCGTGCTA: 0.273 z-score
TCATCTTTTTTGTTCCAACTGTGCTAG: 1.03 z-score
TTTACTTTCTATGTCTGTTTGTGCTAG: 1.53 z-score
TACGATATCGGGTTTCGAGACGTGCTA: 3 z-score
CCAGACCCTGATCCATGCATGTGCTAG: -0.219 z-score
TTAGGAATGGGGTTTCGGTTAGTGCTA: 5.9 z-score
TCATGTTTGATCTTGATACTGTGCTAG: 0.144 z-score
GACGGTATCGGGTTTCGTGACGTGCTA: 2.45 z-score
TTAGATTTCGGGACGGGATTAGTGCTA: 0.228 z-score
TCAGGACTGACTCTTCAGACTGTGCTA: -0.789 z-score
TCATTTCTCTTTCACTGACTGTGCTAG: 2.87 z-score

Series 6 — target: DDIT3, bZIP domain (human); technique: DHFR protein complementation; matrix: yeast; reference: wild-type JUN-FOS pair; direction: higher = stronger binding; endpoint: binding fitness
Setting: single substitutions, most at no-binding floor
Starting sequence: JUN, bZIP domain (human); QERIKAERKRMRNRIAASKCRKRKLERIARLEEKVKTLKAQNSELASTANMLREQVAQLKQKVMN; partner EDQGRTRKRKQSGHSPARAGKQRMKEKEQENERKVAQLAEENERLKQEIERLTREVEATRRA
V35W: -0.0228 natural log
E33D: -0.035 natural log
A29R: -0.000803 natural log
L52S: -1.2 natural log
E32W: -0.919 natural log
E44Y: -0.255 natural log
S47K: 0.217 natural log
V35P: -1.24 natural log
E32G: -0.401 natural log
E32S: -0.237 natural log
A29I: -0.0283 natural log
R30Q: 0.13 natural log
A40M: -0.0351 natural log
A29C: -0.184 natural log
K36D: -0.003 natural log
Q55K: 0.0654 natural log
A57G: -0.0803 natural log
E33M: -0.05 natural log
M51A: 0.163 natural log
Q41M: -0.0261 natural log

Repeated from above (series 6):
A40M: -0.0351 natural log
A29C: -0.184 natural log
K36D: -0.003 natural log
Q55K: 0.0654 natural log
A57G: -0.0803 natural log
E33M: -0.05 natural log
